Experimental data of several laboratories.
Lines come from different studies, so protocols differ.
H2-D1 17: H-2 class I histocompatibility antigen, D-B alpha chain, 17 (H2-D1, Mus musculus, UniProt P01899)
UniProt P01899, sequence (whole entry, looked up): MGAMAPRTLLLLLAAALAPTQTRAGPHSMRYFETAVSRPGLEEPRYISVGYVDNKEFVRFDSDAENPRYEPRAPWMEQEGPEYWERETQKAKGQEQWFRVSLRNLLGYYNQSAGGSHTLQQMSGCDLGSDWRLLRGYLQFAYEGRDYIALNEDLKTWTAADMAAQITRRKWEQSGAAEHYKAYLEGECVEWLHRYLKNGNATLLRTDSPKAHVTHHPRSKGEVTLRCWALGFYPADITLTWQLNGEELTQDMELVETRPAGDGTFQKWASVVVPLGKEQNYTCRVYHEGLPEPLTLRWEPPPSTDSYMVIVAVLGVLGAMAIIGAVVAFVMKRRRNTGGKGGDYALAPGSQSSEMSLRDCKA
Tumor necrosis factor receptor superfamily member 9/Nectin-4: Tumor necrosis factor receptor superfamily member 9/Nectin-4 (Homo sapiens, UniProt Q07011+Q96NY8)
UniProt Q07011, sequence (whole entry, looked up): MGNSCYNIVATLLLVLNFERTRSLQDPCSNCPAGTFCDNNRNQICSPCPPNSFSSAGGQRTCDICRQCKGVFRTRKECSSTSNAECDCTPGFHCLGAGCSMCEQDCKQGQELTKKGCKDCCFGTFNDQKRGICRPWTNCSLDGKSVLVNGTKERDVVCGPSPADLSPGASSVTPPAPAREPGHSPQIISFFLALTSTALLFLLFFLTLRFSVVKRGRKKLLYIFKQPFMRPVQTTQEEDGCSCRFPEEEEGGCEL
UniProt Q96NY8, sequence (whole entry, looked up): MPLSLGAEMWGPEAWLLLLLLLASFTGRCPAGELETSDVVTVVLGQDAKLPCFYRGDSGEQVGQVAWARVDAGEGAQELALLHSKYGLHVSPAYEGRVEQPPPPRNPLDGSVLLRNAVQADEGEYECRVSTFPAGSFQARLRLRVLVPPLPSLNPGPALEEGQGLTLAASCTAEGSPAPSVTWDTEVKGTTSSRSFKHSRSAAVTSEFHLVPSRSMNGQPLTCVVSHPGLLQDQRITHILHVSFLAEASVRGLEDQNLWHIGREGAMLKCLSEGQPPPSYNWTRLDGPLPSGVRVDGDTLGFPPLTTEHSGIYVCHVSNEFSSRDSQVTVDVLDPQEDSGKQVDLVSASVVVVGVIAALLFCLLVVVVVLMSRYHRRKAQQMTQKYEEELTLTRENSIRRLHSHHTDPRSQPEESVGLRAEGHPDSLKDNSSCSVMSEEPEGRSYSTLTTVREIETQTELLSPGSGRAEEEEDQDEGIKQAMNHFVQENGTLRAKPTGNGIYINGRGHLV
sdiA: Regulatory protein SdiA (sdiA, Escherichia coli, UniProt P07026)
UniProt P07026, sequence (whole entry, looked up): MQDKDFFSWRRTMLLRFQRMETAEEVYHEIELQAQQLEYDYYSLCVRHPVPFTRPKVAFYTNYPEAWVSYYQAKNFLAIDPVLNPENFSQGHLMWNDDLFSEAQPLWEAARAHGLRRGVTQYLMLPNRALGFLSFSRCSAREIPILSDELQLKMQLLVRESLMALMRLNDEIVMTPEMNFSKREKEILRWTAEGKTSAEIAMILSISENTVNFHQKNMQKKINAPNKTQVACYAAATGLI
UniProt P07700, sequence (whole entry, unmodified, looked up): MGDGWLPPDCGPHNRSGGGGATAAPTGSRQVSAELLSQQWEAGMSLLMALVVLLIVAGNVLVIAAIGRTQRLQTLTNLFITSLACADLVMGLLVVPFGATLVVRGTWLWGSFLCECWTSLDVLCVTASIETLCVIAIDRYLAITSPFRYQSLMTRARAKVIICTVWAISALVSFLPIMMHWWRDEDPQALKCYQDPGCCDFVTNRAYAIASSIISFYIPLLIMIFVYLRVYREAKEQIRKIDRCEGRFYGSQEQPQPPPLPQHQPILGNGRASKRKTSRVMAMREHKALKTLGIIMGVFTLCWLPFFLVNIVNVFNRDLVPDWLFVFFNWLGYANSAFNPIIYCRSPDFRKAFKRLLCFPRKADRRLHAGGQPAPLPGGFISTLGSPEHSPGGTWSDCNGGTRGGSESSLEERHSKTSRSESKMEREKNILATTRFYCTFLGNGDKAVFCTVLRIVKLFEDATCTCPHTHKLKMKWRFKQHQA
UniProt O60674, sequence (whole entry, looked up): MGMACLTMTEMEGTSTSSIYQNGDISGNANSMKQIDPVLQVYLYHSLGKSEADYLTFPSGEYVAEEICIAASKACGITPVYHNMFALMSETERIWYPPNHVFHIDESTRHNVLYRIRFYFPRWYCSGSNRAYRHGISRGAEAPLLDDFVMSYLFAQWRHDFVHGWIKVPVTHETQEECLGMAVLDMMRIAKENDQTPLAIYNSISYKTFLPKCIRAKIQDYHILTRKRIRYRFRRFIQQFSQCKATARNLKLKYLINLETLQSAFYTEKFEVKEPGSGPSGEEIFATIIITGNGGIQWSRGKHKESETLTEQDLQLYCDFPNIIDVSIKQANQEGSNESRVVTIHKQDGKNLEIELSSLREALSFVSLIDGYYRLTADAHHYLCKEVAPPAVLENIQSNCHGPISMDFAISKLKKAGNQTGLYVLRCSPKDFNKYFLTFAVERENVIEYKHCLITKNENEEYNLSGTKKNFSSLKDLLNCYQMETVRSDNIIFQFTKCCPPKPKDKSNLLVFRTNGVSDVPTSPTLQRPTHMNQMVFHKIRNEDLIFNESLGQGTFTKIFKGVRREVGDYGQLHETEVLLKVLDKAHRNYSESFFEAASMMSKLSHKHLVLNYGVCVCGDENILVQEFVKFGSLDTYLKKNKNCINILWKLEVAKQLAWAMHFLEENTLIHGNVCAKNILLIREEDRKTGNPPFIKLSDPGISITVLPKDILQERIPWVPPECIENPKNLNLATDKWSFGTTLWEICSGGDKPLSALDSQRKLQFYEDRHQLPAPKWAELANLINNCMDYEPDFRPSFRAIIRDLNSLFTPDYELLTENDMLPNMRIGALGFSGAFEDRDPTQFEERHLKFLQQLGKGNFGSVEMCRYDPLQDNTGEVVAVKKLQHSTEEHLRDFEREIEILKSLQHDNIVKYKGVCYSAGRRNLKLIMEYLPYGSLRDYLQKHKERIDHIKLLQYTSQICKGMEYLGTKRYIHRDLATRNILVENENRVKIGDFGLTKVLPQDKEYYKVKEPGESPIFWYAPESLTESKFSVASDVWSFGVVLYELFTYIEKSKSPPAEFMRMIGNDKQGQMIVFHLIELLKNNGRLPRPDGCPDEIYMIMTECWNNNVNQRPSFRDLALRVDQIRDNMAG
UniProt P03372, sequence (whole entry, looked up): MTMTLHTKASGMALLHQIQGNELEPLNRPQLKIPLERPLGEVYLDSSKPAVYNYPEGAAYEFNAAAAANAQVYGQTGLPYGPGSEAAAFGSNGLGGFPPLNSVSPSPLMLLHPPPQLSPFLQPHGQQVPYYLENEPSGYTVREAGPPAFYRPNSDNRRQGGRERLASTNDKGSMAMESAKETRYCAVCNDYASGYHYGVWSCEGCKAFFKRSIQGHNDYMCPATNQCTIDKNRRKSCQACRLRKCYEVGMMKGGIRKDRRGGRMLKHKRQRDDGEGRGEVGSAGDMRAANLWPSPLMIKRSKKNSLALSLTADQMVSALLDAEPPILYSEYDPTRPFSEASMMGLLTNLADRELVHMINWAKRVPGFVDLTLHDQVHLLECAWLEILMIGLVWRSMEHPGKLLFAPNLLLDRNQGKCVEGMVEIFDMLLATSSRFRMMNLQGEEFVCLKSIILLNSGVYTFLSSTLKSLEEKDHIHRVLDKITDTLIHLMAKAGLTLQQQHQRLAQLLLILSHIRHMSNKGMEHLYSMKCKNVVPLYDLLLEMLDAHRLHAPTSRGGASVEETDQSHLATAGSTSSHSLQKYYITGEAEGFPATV
UniProt P34972, sequence (whole entry, looked up): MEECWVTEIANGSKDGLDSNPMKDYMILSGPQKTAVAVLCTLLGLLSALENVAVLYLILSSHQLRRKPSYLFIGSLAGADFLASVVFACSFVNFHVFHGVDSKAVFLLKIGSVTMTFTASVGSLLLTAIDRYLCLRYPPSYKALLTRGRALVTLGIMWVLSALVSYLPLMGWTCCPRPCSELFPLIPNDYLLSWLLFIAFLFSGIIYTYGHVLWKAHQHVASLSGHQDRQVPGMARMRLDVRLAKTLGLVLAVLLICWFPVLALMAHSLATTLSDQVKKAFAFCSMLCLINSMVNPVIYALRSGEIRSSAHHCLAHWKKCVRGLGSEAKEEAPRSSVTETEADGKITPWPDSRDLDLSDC

Structure (SMILES) | target or system | assay | system | conditions | scale | measurement | result
COc1cc(C(=O)N2CC[C@@H](O)[C@@H](N)C2)cc2nc(-c3cc4ccccc4n3CC3CC3)n(C)c12 | CNR2 (Homo sapiens, UniProt P34972) | agonist, yeast FDGlu reporter | yeast | – | – | EC50 | > 31600 nM
COc1ccc(C[C@@H](C)NC[C@H](O)c2ccc(O)c3[nH]c(=O)ccc23)cc1 | ADRB1 (Meleagris gallopavo, UniProt P07700, C116L/C358A/del244-271/del277-278) | CRE-SPAP reporter gene, agonist | CHO cells | – | – | EC50 | 0.676 nM
CC[C@H](C)[C@H](NC(=O)[C@H](C)NC(=O)[C@@H](NC(=O)[C@@H](NC(=O)[C@H](C)NC(=O)[C@H](CC(N)=O)NC(=O)[C@H](Cc1c[nH]c2ccccc12)NC(=O)[C@@H](NC(=O)[C@H](CO)NC(=O)[C@@H](N)CO)C(C)C)[C@@H](C)O)[C@@H](C)O)C(=O)O | H2-D1 17 | H-2D stabilisation, flow cytometry | RMA-S TAP-deficient | overnight | – | EC50 | 2000 nM
Cc1cc(SCc2sc(-c3ccc(C(F)(F)F)c(F)c3)nc2C)ccc1OCC(=O)O | Peroxisome proliferator-activated receptor delta (Rattus norvegicus, UniProt Q62879) | reporter gene, agonist, luciferase reporter | rat | serum-free | – | EC50 | 7 nM
CCCC[C@@H]1NC(=O)[C@H](Cc2ccc(O)cc2)NC(=O)[C@@H]2CCCN2C(=O)[C@H](CC(=O)O)NC(=O)[C@H](C)NC(=O)[C@H](Cc2ccccc2)NC(=O)[C@@H]2CSCCC(=O)N3CN(CN(C3)C(=O)CCSCCC(=O)N[C@@H](CC(C)(C)C)C(=O)N3CCC[C@H]3C(=O)N[C@@H](CCC(=O)O)C(=O)N[C@H](CCCCNC(=O)CCc3cn(CCOCCOCCOCCN(CCOCCOCCOCCC(=O)N[C@H]4CSCCC(=O)N5CN6CN(C5)C(=O)CCSC[C@H](NC(=O)[C@@H](CC(=O)O)NC(=O)[C@H](Cc5cccc7ccccc57)NC(=O)[C@@H]5CCCN5C4=O)C(=O)N[C@@H](CCSC)C(=O)N[C@@H](CCCCNC(=N)N)C(=O)N[C@@H](CC(=O)O)C(=O)N[C@@H](Cc4c[nH]c5ccccc45)C(=O)N[C@@H](CO)C(=O)N[C@@H]([C@@H](C)O)C(=O)N4CCC[C@H]4C(=O)N4C[C@H](O)C[C@H]4C(=O)N[C@@H](Cc4c[nH]c5ccccc45)C(=O)N[C@H](C(N)=O)CSCCC6=O)CCOCCOCCOCCn4cc(CCC(=O)NCCCC[C@H]5NC(=O)[C@H](CCC(=O)O)NC(=O)[C@@H]6CCCN6C(=O)[C@H](CC(C)(C)C)NC(=O)CCSCCC(=O)N6CN7CN(C6)C(=O)CCSC[C@H](NC(=O)[C@H](Cc6ccc(O)cc6)NC(=O)[C@@H]6CCCN6C5=O)C(=O)N[C@@H](Cc5ccccc5)C(=O)N[C@@H](C)C(=O)N[C@@H](CC(=O)O)C(=O)N5CCC[C@H]5C(=O)N[C@@H](Cc5ccc(O)cc5)C(=O)N[C@@H](CCCC)C(=O)NCCSCCC7=O)nn4)nn3)C(=O)N3CCC[C@H]3C(=O)N[C@@H](Cc3ccc(O)cc3)C(=O)N2)C(=O)CCSCCNC1=O | Tumor necrosis factor receptor superfamily member 9/Nectin-4 | reporter gene, agonist | HT-1376 coculture with reporter cells | – | – | EC50 | 0.82 nM
CC(CCc1ccc(O)cc1)NCCc1ccc(O)c(O)c1 (stereo not shown) | ADRB1 (Meleagris gallopavo, UniProt P07700, C116L) | CRE-SPAP reporter gene, agonist | CHO cells | – | – | EC50 | 162 nM
Cc1ccccc1CN1C(=O)c2ccccc2Sc2ccc(C(=O)NCCCN3CCOCC3)cc21 | Vero-E6 | CellTiter-Glo ATP | – | concentration not given, 72 h, retest 8-point duplicates | baseline: DMSO 0%, hyamine -100%, more negative, more toxic | cytotoxicity efficacy | -14.1%
C[C@H]1CN(c2n[nH]c3nc(N[C@H]4CC[C@H](NS(=O)(=O)CCC(F)(F)F)CC4)ncc23)CCO1 | JAK2 (Homo sapiens, UniProt O60674) | inhibitor, Kinobeads competition profiling | – | 0.16 µM | baseline: vehicle | relative abundance | 1.13
CC[C@H](C)[C@H](NC(=O)[C@H](C)NC(=O)[C@@H](NC(=O)[C@@H](NC(=O)[C@H](C)NC(=O)[C@H](C)NC(=O)[C@H](Cc1c[nH]c2ccccc12)NC(=O)[C@@H](NC(=O)[C@H](CO)NC(=O)[C@@H](N)CO)C(C)C)[C@@H](C)O)[C@@H](C)O)C(=O)O | H2-D1 17 | H-2D stabilisation, flow cytometry | RMA-S TAP-deficient | overnight | – | EC50 | 60000 nM
CCCCCCCC(=O)N[C@H]1CCOC1=O | sdiA | – | – | – | – | EC50 | 2.9 nM
CCCC[C@@H]1NC(=O)[C@H](Cc2ccc(O)cc2)NC(=O)[C@@H]2CCCN2C(=O)[C@H](CC(=O)O)NC(=O)[C@H](C)NC(=O)[C@H](Cc2ccccc2)NC(=O)[C@@H]2CSCCC(=O)N3CN(CN(C3)C(=O)CCSC[C@@H](C(=O)N[C@@H](CNC(=O)CCOCCOCCOCCOCCOCCn3cc(CCC(=O)N[C@H]4CSCCC(=O)N5CN6CN(C5)C(=O)CCSC[C@H](NC(=O)[C@@H](CC(=O)O)NC(=O)[C@H](Cc5cccc7ccccc57)NC(=O)[C@@H]5CCCN5C4=O)C(=O)N[C@@H](CCSC)C(=O)N[C@@H](CCCCNC(=N)N)C(=O)N[C@@H](CC(=O)O)C(=O)N[C@@H](Cc4c[nH]c5ccccc45)C(=O)N[C@@H](CO)C(=O)N[C@@H]([C@@H](C)O)C(=O)N4CCC[C@H]4C(=O)N4C[C@H](O)C[C@H]4C(=O)N[C@@H](Cc4c[nH]c5ccccc45)C(=O)N[C@H](C(N)=O)CSCCC6=O)nn3)C(N)=O)NC1=O)C(=O)CCSC[C@H](NC(C)=O)C(=O)N[C@@H](CC(C)(C)C)C(=O)N1CCC[C@H]1C(=O)N[C@@H](CCC(=O)O)C(=O)N[C@H](C)C(=O)N1CCC[C@H]1C(=O)N[C@@H](Cc1ccc(O)cc1)C(=O)N2 | Tumor necrosis factor receptor superfamily member 9/Nectin-4 | reporter gene, agonist | HT-1376 coculture with reporter cells | – | – | EC50 | 1.54 nM
CCCC(=O)N[C@H]1CCOC1=O | sdiA | – | – | – | – | EC50 | 932 nM
CCCC[C@@H]1NC(=O)[C@H](Cc2ccc(O)cc2)NC(=O)[C@@H]2CCCN2C(=O)[C@H](CC(=O)O)NC(=O)[C@H](C)NC(=O)[C@H](Cc2ccccc2)NC(=O)[C@@H]2CSCCC(=O)N3CN(CN(C3)C(=O)CCSC[C@H](NC(C)=O)C(=O)N[C@@H](CC(C)(C)C)C(=O)N[C@@H](CCC(=O)O)C(=O)N[C@@H](CCC(=O)O)C(=O)N[C@H](CCCCNC(=O)CCc3cn(CCOCCOCCOCCOCCOCCC(=O)N[C@H]4CSCCC(=O)N5CN6CN(C5)C(=O)CCSC[C@H](NC(=O)[C@@H](CC(=O)O)NC(=O)[C@H](Cc5cccc7ccccc57)NC(=O)[C@@H]5CCCN5C4=O)C(=O)N[C@@H](CCSC)C(=O)N[C@@H](CCCCNC(=N)N)C(=O)N[C@@H](CC(=O)O)C(=O)N[C@@H](Cc4c[nH]c5ccccc45)C(=O)N[C@@H](CO)C(=O)N[C@@H]([C@@H](C)O)C(=O)N4CCC[C@H]4C(=O)N4C[C@H](O)C[C@H]4C(=O)N[C@@H](Cc4c[nH]c5ccccc45)C(=O)N[C@H](C(N)=O)CSCCC6=O)nn3)C(=O)N3CCC[C@H]3C(=O)N[C@@H](Cc3ccc(O)cc3)C(=O)N2)C(=O)CCSC[C@@H](C(N)=O)NC1=O | Tumor necrosis factor receptor superfamily member 9/Nectin-4 | reporter gene, agonist | HT-1376 coculture with reporter cells | – | – | EC50 | 0.86 nM
CC[C@H](C)[C@H](NC(=O)[C@H](C)NC(=O)[C@@H](NC(=O)[C@@H](NC(=O)[C@H](C)NC(=O)[C@H](CC(N)=O)NC(=O)[C@H](Cc1c[nH]c2ccccc12)NC(=O)[C@@H](NC(=O)[C@H](C)NC(=O)[C@@H](N)CO)C(C)C)[C@@H](C)O)[C@@H](C)O)C(=O)O | H2-D1 17 | H-2D stabilisation, flow cytometry | RMA-S TAP-deficient | overnight | – | EC50 | 2000 nM
CCCC[C@@H]1NC(=O)[C@H](Cc2ccc(O)cc2)NC(=O)[C@@H]2CCCN2C(=O)[C@H](CC(=O)O)NC(=O)[C@H](C)NC(=O)[C@H](Cc2ccccc2)NC(=O)[C@@H]2CSCCC(=O)N3CN(CN(C3)C(=O)CCSC[C@@H](C(=O)N[C@@H](C)C(N)=O)NC1=O)C(=O)CCSC[C@H](NC(C)=O)C(=O)N[C@@H](CC(C)(C)C)C(=O)N1CCC[C@H]1C(=O)N[C@@H](CCC(=O)O)C(=O)N[C@H](CCCCNC(=O)CCc1cn(CCOCCOCCOCCN(CCOCCOCCOCCn3cc(CCC(=O)NCCCC[C@H]4NC(=O)[C@H](CCC(=O)O)NC(=O)[C@@H]5CCCN5C(=O)[C@H](CC(C)(C)C)NC(=O)[C@@H](NC(C)=O)CSCCC(=O)N5CN6CN(C5)C(=O)CCSC[C@H](NC(=O)[C@H](Cc5ccc(O)cc5)NC(=O)[C@@H]5CCCN5C4=O)C(=O)N[C@@H](Cc4ccccc4)C(=O)N[C@@H](C)C(=O)N[C@@H](CC(=O)O)C(=O)N4CCC[C@H]4C(=O)N[C@@H](Cc4ccc(O)cc4)C(=O)N[C@@H](CCCC)C(=O)N[C@H](C(=O)N[C@@H](C)C(N)=O)CSCCC6=O)nn3)CCOCCOCCOCC(=O)NCCCNC(=O)Cn3cc(CCC(=O)NCCCNC(=O)COCCOCCOCCN(CCOCCOCCOCCn4cc(CCC(=O)NCCC(=O)N[C@H]5CSCCC(=O)N6CN7CN(C6)C(=O)CCSC[C@H](NC(=O)[C@@H](CC(=O)O)NC(=O)[C@H](Cc6cccc8ccccc68)NC(=O)[C@@H]6CCCN6C5=O)C(=O)N[C@@H](CCSC)C(=O)N[C@@H](CCCCNC(=N)N)C(=O)N[C@@H](CC(=O)O)C(=O)N[C@@H](Cc5c[nH]c6ccccc56)C(=O)N[C@@H](CO)C(=O)N[C@@H]([C@@H](C)O)C(=O)N5CCC[C@H]5C(=O)N5C[C@H](O)C[C@H]5C(=O)N[C@@H](Cc5c[nH]c6ccccc56)C(=O)N[C@H](C(N)=O)CSCCC7=O)nn4)CCOCCOCCOCCn4cc(CCC(=O)NCCC(=O)N[C@H]5CSCCC(=O)N6CN7CN(C6)C(=O)CCSC[C@H](NC(=O)[C@@H](CC(=O)O)NC(=O)[C@H](Cc6cccc8ccccc68)NC(=O)[C@@H]6CCCN6C5=O)C(=O)N[C@@H](CCSC)C(=O)N[C@@H](CCCCNC(=N)N)C(=O)N[C@@H](CC(=O)O)C(=O)N[C@@H](Cc5c[nH]c6ccccc56)C(=O)N[C@@H](CO)C(=O)N[C@@H]([C@@H](C)O)C(=O)N5CCC[C@H]5C(=O)N5C[C@H](O)C[C@H]5C(=O)N[C@@H](Cc5c[nH]c6ccccc56)C(=O)N[C@H](C(N)=O)CSCCC7=O)nn4)nn3)nn1)C(=O)N1CCC[C@H]1C(=O)N[C@@H](Cc1ccc(O)cc1)C(=O)N2 | Tumor necrosis factor receptor superfamily member 9/Nectin-4 | reporter gene, agonist | HT-1376 reporter coculture | – | – | EC50 | 0.052 nM
COc1cc(Nc2ncc(F)c(Nc3ccc4c(n3)NC(=O)C(C)(C)O4)n2)cc(OC)c1OC | Estrogen receptor (ESR1, Homo sapiens, UniProt P03372) | – | – | – | – | IC50 | > 10000 nM

A few entries again:
Structure (SMILES) | target or system | assay | system | conditions | scale | measurement | result
COc1cc(Nc2ncc(F)c(Nc3ccc4c(n3)NC(=O)C(C)(C)O4)n2)cc(OC)c1OC | Estrogen receptor (ESR1, Homo sapiens, UniProt P03372) | – | – | – | – | IC50 | > 10000 nM
Cc1cc(SCc2sc(-c3ccc(C(F)(F)F)c(F)c3)nc2C)ccc1OCC(=O)O | Peroxisome proliferator-activated receptor delta (Rattus norvegicus, UniProt Q62879) | reporter gene, agonist, luciferase reporter | rat | serum-free | – | EC50 | 7 nM
CC[C@H](C)[C@H](NC(=O)[C@H](C)NC(=O)[C@@H](NC(=O)[C@@H](NC(=O)[C@H](C)NC(=O)[C@H](CC(N)=O)NC(=O)[C@H](Cc1c[nH]c2ccccc12)NC(=O)[C@@H](NC(=O)[C@H](C)NC(=O)[C@@H](N)CO)C(C)C)[C@@H](C)O)[C@@H](C)O)C(=O)O | H2-D1 17 | H-2D stabilisation, flow cytometry | RMA-S TAP-deficient | overnight | – | EC50 | 2000 nM
